Published values pooled from the literature.
Numbered parts are unrelated; each lists some results of a single study. Substitutions count along the parent as printed.
Chain of UniProt P05771 (whole entry, looked up): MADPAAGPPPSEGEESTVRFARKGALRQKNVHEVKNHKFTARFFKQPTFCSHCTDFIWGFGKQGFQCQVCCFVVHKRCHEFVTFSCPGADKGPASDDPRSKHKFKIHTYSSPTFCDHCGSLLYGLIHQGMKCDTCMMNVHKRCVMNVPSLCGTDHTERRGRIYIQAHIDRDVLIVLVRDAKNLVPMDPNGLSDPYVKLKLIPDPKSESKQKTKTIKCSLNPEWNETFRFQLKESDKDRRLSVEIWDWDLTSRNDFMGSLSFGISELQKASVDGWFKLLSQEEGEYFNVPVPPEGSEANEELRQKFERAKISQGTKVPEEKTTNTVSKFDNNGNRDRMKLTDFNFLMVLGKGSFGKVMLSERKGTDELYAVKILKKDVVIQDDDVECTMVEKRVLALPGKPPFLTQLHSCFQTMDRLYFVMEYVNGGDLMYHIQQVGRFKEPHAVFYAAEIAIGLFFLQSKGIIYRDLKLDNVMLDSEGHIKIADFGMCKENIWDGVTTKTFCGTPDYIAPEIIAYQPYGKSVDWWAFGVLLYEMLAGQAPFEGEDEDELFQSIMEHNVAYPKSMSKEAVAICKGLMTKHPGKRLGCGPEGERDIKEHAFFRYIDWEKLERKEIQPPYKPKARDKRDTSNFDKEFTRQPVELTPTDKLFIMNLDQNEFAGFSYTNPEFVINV

Series 1
Target: Fragile X messenger ribonucleoprotein 1, C-terminal low-complexity region (Fmr1, Mus musculus, UniProt P35922)
Technique: RNA Bind-n-Seq
Form: RNA
Matrix: in vitro
Concentration: 200 nM
Setting: whole 134-nt RNA, ends assumed
With: 150 mM KCl
Relative to: input library
Reading: higher = stronger binding
Constant ends, left off below: GGGAGUUCUACAGUCCGACGAUC … UGGAAUUCUCGGGUGUCAAGG
Strand | log2 enrichment
AGUCCUGUGCUACACAUCGUAUGUACCGAAUCGGGUGGGAAAAAGGGUUUUUUUGGGAAAGUAUUAUGUUACGCCGUUCGGAUCUGCACU | 0.454
CUGUGCUACACAUCGUAUGUACCGAAUCGGGGAAAAAAAGGGGUUUGGGGUUUUUUUGGGGAAAGUAUUAUGUUACGCCGUUCGGAUCUG | 0.0438
CAAGUCCUGUGCUACACAUCGUAUGUACCGAAUCGGGGAGGGGAGGGGUUUGGGGAAAGUAUUAUGUUACGCCGUUCGGAUCUGCACUUC | 1.23
AGUCCUGUGCUACACAUCGUAUGUACCGAAUCAAACCCAAAUUUAAAUUUUUUUAAAAAAGUAUUAUGUUACGCCGUUCGGAUCUGCACU | 0.171
GUCCUGUGCUACACAUCGUAUGUACCGAAUCGGGGUUUGGGGUUUGGGGAAAAAGGGGAAAGUAUUAUGUUACGCCGUUCGGAUCUGCAC | 0.616
UGUCCUGCAGGGUCGGACCGAUACCUGGAGAGCCGCGAUGCCUCUCGACUGAGUGGCCGGGACCCCUCCUCAUGGACAGUCGAGGAUGUG | -2.32
CUGUGCUACACAUCGUAUGUACCGAAUCGGAAAAAAAGGGAAAAAAAGGGAAAAAAAGGGGAAAGUAUUAUGUUACGCCGUUCGGAUCUG | -1.09
UGUGAGCUGACUUUUUGGAUCAACUUUACUUUUCCCUUCUUUUUAGGCAAUUGAAGAUGAAGGUGGUAAUCCUGACGAAAUUGAAAUUAC | -0.0604

Series 2
Target: HLA class I histocompatibility antigen, C alpha chain, allele C*04:01 (Homo sapiens, UniProt P10321)
Observed: peptide-MHC binding
Form: peptide
Concentration: concentration not given
Sequence | binding
TFMGMNVQF | inactive
AEMGANLCV | inactive
YTYGAGSYF | inactive
YTFTSLFSL | inactive
SHDLAPQFL | inactive
SYCNGVREL | inactive
RQHPGLFPF | inactive
MPFIATPPV | inactive
HTEFQTVSF | inactive
FVYSVSFHK | inactive
MAMGILHTI | inactive
REMHHLVEF | inactive
MTYLDGHPV | inactive
FPRIGTAVF | inactive
LEDGIYGIF | inactive
RYSHWTKL | inactive
YSFSRAYTL | inactive
WMRWGGWPF | inactive
LMMNGTSAM | inactive
TRDPNLAYI | inactive
APRARTAAF | inactive
FVDVIIIKV | inactive
RPRRASSPF | inactive
LMMSSPPPI | inactive
IVDCLTEMYY | inactive

Series 3
Target: CCND1, cyclin fold, Cln2 fusion (human)
Technique: yeast growth competition, sequencing
Matrix: yeast
Setting: weak parent motif
Relative to: not given
Reading: higher = stronger binding
Parent: viral docking peptide; TSVRRALFTGGSD; partner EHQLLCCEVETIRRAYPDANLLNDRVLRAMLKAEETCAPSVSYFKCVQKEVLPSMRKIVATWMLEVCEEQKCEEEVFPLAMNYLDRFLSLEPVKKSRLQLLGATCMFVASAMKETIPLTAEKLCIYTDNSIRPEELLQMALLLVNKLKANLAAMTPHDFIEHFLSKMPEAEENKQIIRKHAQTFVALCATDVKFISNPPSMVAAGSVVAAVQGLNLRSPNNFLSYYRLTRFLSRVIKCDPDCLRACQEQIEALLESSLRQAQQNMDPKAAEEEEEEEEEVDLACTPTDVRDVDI
Substitution | normalised enrichment score
R4A | 0.56
G11S | 0.452
V3D | 0.0267
S2K | 0.392
R5S | 0.361
A6V | 0.607
L7N | 0.2
T9V | 0.593
R4C | 1.46
T9A | 0.0796
A6D | 0.0166
A6R | 0.44
R4M | 0.414
T9K | 0.549
T9H | 0.373
S12C | 0.45
T1A | 0.808
T9F | 1.24
G11K | 0.406
V3Y | 0.107
S12T | 0.501
S2G | 0.404
V3A | 1.27
G10M | 0.0959
G11F | 0.427

Mixed results
Compound | target | observed | action | concentration | relative to | measurement | value
CC(C)(C)c1cc(C=C(C#N)C#N)cc(Br)c1O | Protein kinase C beta type, isoform beta-II (PRKCB, Homo sapiens, UniProt P05771) | enzyme activity | inhibitor | 0.5 µM | control | remaining activity | 129%
